Experimental data from different studies.
Lines come from different studies, so protocols differ. Numbers after ± are the reported error.

CSCCNc1nc(SCCC(F)(F)F)nc2c1ncn2[C@@H]1O[C@H](COP(=O)(O)OP(=O)(O)C(Cl)(Cl)P(=O)(O)O)[C@@H](O)[C@H]1O has an inhibition of 20.2 ± 21.1% (platelet aggregation, light transmission aggregometry; human patients, platelet-rich plasma; dose not given, 2 h, with: TRAP 15 µM).
The inhibition of CN[C@@H]1COc2c(S(=O)(=O)NC(=O)Nc3c4c(cc5c3CCC5)CCC4)cnn2C1 is reported as 99.4% (item: IL-1β; human participants, whole blood ex vivo; 900 mg twice daily, multiple doses, 96 h, with: LPS/ATP; relative to: baseline).
For CC[C@@H]1[C@H](F)C(=O)N[C@@H]1COc1nccc2cc(C(N)=O)c(OC)cc12, the inhibition was 1.7% (ATP-site probe binding, ActivX profiling, item: PCTAIRE2, PCTAIRE3; THP-1 cell lysate; 0.04 mM, Lys1 site).
With Cc1noc(NS(=O)(=O)c2ccc(N=NN(O)c3ccccc3)cc2)c1C the inhibition was 76.6% (paw oedema; rat, carrageenan oedema; oral, 100 mg/kg, 4 h after carrageenan; relative to: vehicle).
Cn1cc(Nc2nc(N)nc(-c3cccc(-n4ccc5cc(C6CC6)cc(F)c5c4=O)c3CO)n2)cn1 gave an inhibition of 90.8% (CD63 upregulation, anti-IgE-induced; human, multiple ascending dose, whole blood basophils ex vivo; 300 mg twice daily, day 14, 12 h).
For CNCc1cc(-c2ccccc2F)n(S(=O)(=O)c2cccnc2)c1, the inhibition was 59.2% (aspirin-induced gastric lesions; rat; oral, 2 mg/kg, 4 h; relative to: vehicle).
For CCCCC1C(=O)N(c2ccccc2)N(c2ccccc2)C1=O, the inhibition was 65.1% (carrageenan paw oedema; albino rat; oral, 100 mg/kg, 3 h).
For O=C1O[C@H]([C@@H](O)CO)C(O)=C1O, the inhibition was 52.7% (nitric oxide scavenging; 160 µM).
The inhibition of NCC(=O)Nc1cncc(-c2nn3c(=O)cc(N4CCNCC4)nc3s2)c1 is reported as 14.5% (ADP-induced platelet aggregation, light transmission aggregometry; human, stable CAD on aspirin, ex vivo platelets; subcutaneous, 0.05 mg/kg, 120 min post-dose, mean value, with: ADP 20 µM).

For quick reference, copied from above:
For CC[C@@H]1[C@H](F)C(=O)N[C@@H]1COc1nccc2cc(C(N)=O)c(OC)cc12, the inhibition was 1.7% (ATP-site probe binding, ActivX profiling, item: PCTAIRE2, PCTAIRE3; THP-1 cell lysate; 0.04 mM, Lys1 site).
With Cc1noc(NS(=O)(=O)c2ccc(N=NN(O)c3ccccc3)cc2)c1C the inhibition was 76.6% (paw oedema; rat, carrageenan oedema; oral, 100 mg/kg, 4 h after carrageenan; relative to: vehicle).
